Results from different studies.
Lines come from different studies, so protocols differ. ± gives the spread as reported.

`NC[C@@H]1O[C@H](O[C@H]2[C@@H](O)[C@H](O[C@@H]3[C@@H](O)[C@H](N)C[C@H](N)[C@H]3O[C@H]3O[C@H](CO)[C@@H](CCO)[C@H](O)[C@H]3N)O[C@@H]2CO)[C@H](N)[C@@H](O)[C@@H]1O` gave an IC50 of 25 µg/mL (bacterial hybrid ribosome, human mitochondrial A1555G A site; cell-free translation, inhibitor).
`COC[C@@H](NC(C)=O)C(=O)NCc1ccc(-c2ccc(F)cc2)cc1` has an IC50 of 0.82 µM (voltage-gated sodium channels (mouse); slow inactivation, whole-cell patch clamp; CAD cells; -50 mV conditioning pulse).
For `CC(C)S[C@H]1[C@H](O)[C@@H](N)[C@@H](O[C@H]2[C@H](O[C@@H]3O[C@H](CO)[C@@H](O[C@H]4O[C@@H](CN)[C@@H](O)[C@H](O)[C@H]4N)[C@H]3O)[C@@H](O)[C@H](N)C[C@@H]2N)O[C@@H]1CO`, the IC50 was 125 µg/mL (bacterial hybrid ribosome, human mitochondrial A1555G A site; cell-free translation, inhibitor).
`CCCO[C@H]1[C@H](O)[C@@H](N)[C@@H](O[C@H]2[C@H](O[C@@H]3O[C@H](CO)[C@@H](O[C@H]4O[C@@H](CN)[C@@H](O)[C@H](O)[C@H]4N)[C@H]3O)[C@@H](O)[C@H](N)C[C@@H]2N)O[C@@H]1CO` has an IC50 of 45.5 ± 23.6 µg/mL (Mycobacterium smegmatis ribosome G1491A; translation, cell-free luciferase synthesis).
The IC50 of `NC[C@@H]1O[C@H](O[C@H]2[C@@H](O)[C@H](O[C@@H]3[C@@H](O)[C@H](N)C[C@H](N)[C@H]3O[C@H]3O[C@H](CO)[C@@H](SCCF)[C@H](O)[C@H]3N)O[C@@H]2CO)[C@H](N)[C@@H](O)[C@@H]1O` is reported as 69 µg/mL (bacterial hybrid ribosome, human cytoplasmic A site; cell-free translation, inhibitor).
For `COCO[C@H]1[C@H](O)[C@@H](N)[C@@H](O[C@H]2[C@H](O[C@@H]3O[C@H](CO)[C@@H](O[C@H]4O[C@@H](CN)[C@@H](O)[C@H](O)[C@H]4N)[C@H]3O)[C@@H](O)[C@H](N)C[C@@H]2N)O[C@@H]1CO`, the IC50 was 11.4 ± 0.55 µg/mL (Mycobacterium smegmatis ribosome G1491A; translation, cell-free luciferase synthesis).
For `CC(C)CS[C@H]1[C@H](O)[C@@H](N)[C@@H](O[C@H]2[C@H](O[C@@H]3O[C@H](CO)[C@@H](O[C@H]4O[C@@H](CN)[C@@H](O)[C@H](O)[C@H]4N)[C@H]3O)[C@@H](O)[C@H](N)C[C@@H]2N)O[C@@H]1CO`, the IC50 was 0.1 µg/mL (wild-type bacterial ribosome; cell-free translation, inhibitor).
`C[C@@H](NC(=O)[C@@H](N)Cc1ccc(O)cc1)C(=O)NCC(=O)N[C@@H](Cc1ccc(F)cc1)C(=O)Nc1ccccc1NC(=O)[C@H](Cc1ccc(F)cc1)NC(=O)CNC(=O)[C@@H](C)NC(=O)[C@@H](N)Cc1ccc(O)cc1` has an IC50 of 0.0037 ± 0.001 µM (mu opioid receptor, guinea pig; ileum contraction, agonist; guinea pig ileum LMMP).
With `CCCS[C@H]1[C@H](O)[C@@H](N)[C@@H](O[C@H]2[C@H](O[C@@H]3O[C@H](CO)[C@@H](O[C@H]4O[C@@H](CN)[C@@H](O)[C@H](O)[C@H]4N)[C@H]3O)[C@@H](O)[C@H](N)C[C@@H]2N)O[C@@H]1CO` the IC50 was 125 µg/mL (bacterial hybrid ribosome, human mitochondrial A site; cell-free translation, inhibitor).
The IC50 of `CC(=O)N[C@H]1CNC(=O)[C@H](Cc2ccccc2)NC(=O)[C@H](Cc2ccccc2)NC(=O)COCCOCCNC1=O` is reported as greater than 10 µM (AgrC (Staphylococcus aureus); reporter gene, inhibitor; Staphylococcus aureus, AH1677 (USA300 LAC); 24 h).
The IC50 of `CCS(=O)(=O)[C@H]1[C@H](O)[C@@H](N)[C@@H](O[C@H]2[C@H](O[C@@H]3O[C@H](CO)[C@@H](O[C@H]4O[C@@H](CN)[C@@H](O)[C@H](O)[C@H]4N)[C@H]3O)[C@@H](O)[C@H](N)C[C@@H]2N)O[C@@H]1CO` is reported as 8.5 µg/mL (wild-type bacterial ribosome; cell-free translation, inhibitor).
The IC50 of `CC[C@@H]1CN2CCc3c([nH]c4cccc(OC)c34)[C@@H]2C[C@@H]1/C(=C\OC)C(=O)OC` is reported as 2.25 µg/mL (anti-compound rabbit polyclonal IgG; antibody binding, competitive indirect ELISA; 1× PBS antibody diluent).
The IC50 of `CC[C@H](C)[C@H](NC(=O)[C@H](C)NC(=O)[C@@H](N)Cc1c[nH]cn1)C(=O)N[C@@H](Cc1ccc(O)cc1)C(=O)N1CCC[C@H]1C(=O)N[C@@H](CCCNC(=N)N)C(=O)N[C@@H](Cc1c[nH]cn1)C(=O)N[C@@H](CO)C(=O)N[C@@H](Cc1c[nH]c2ccccc12)C(=O)N[C@H](C(=O)N[C@@H](Cc1c[nH]c2ccccc12)C(=O)N[C@@H](CCC(=O)O)C(=O)N[C@@H](CCCCN)C(=O)N[C@@H](CCCCN)C(=O)N[C@@H](CC(C)C)C(=O)N[C@@H](CCC(=O)O)C(=O)N[C@H](C(=O)N[C@@H](C)C(=O)N[C@H](C(=O)N[C@@H](CC(N)=O)C(=O)N[C@@H](CC(C)C)C(=O)N[C@@H](C)C(=O)N[C@@H](Cc1c[nH]c2ccccc12)C(=O)N[C@H](C(=O)N[C@@H](C)C(=O)NCC(=O)N[C@@H](CC(N)=O)C(=O)N[C@@H](CO)C(=O)N[C@@H](CC(N)=O)C(=O)N[C@@H](CCCCN)C(=O)N[C@@H](Cc1c[nH]c2ccccc12)C(=O)N[C@H](C(=O)N[C@@H](Cc1c[nH]c2ccccc12)C(=O)N[C@@H](CCCCN)C(=O)O)[C@@H](C)O)[C@@H](C)O)C(C)C)[C@@H](C)O)[C@@H](C)O` is reported as 3.6 µM (cell death; PI staining flow cytometry; MEC1; 90 min).
With `CC(=O)N[C@H]1CSC(=O)[C@H](Cc2ccccc2)NC(=O)[C@H](Cc2ccccc2)NC(=O)COCCOCCNC1=O` the IC50 was 0.181 µM (AgrC (Staphylococcus aureus); reporter gene, inhibitor; Staphylococcus aureus, AH1677 (USA300 LAC); 24 h).
For `CC[C@H](C)[C@H](NC(=O)[C@H](CCCCN)NC(=O)[C@@H](NC(=O)[C@H](CCC(N)=O)NC(=O)[C@H](CCCNC(=N)N)NC(=O)[C@H](CC(C)C)NC(=O)CNC(=O)[C@H](Cc1ccccc1)NC(=O)CNC(=O)[C@H](Cc1ccc(O)cc1)NC(=O)CNC(=O)[C@H](CCCCN)NC(=O)[C@@H](NC(=O)[C@H](Cc1ccccc1)NC(=O)[C@@H](NC(=O)[C@H](CC(=O)O)NC(=O)[C@H](CCCNC(=N)N)NC(=O)[C@H](C)NC(=O)[C@H](CO)NC(=O)[C@H](CCCCN)NC(=O)CNC(=O)[C@H](CC(C)C)NC(=O)[C@H](CC(=O)O)NC(=O)[C@H](C)NC(=O)[C@H](Cc1ccc(O)cc1)NC(=O)[C@@H](NC(=O)[C@@H]1CCCN1C(=O)[C@@H]1CCCN1C(=O)[C@@H](NC(=O)[C@H](C)NC(=O)[C@@H](N)CCSC)C(C)C)[C@@H](C)O)C(C)C)[C@@H](C)O)[C@@H](C)CC)C(=O)N[C@@H](Cc1c[nH]c2ccccc12)C(=O)N[C@@H](Cc1ccccc1)C(=O)N[C@@H](CCC(N)=O)C(=O)N[C@@H](CC(N)=O)C(=O)N[C@@H](CCCNC(=N)N)C(=O)N[C@@H](CCCNC(=N)N)C(=O)N[C@@H](CCSC)C(=O)N[C@@H](CCCCN)C(=O)N[C@@H](Cc1c[nH]c2ccccc12)C(=O)N[C@@H](CCCCN)C(=O)N[C@@H](CCCCN)C(=O)O`, the IC50 was 4.2 µM (cell death; PI staining flow cytometry; MEC1; 90 min).
`NC[C@@H]1O[C@H](O[C@H]2[C@@H](O)[C@H](O[C@@H]3[C@@H](O)[C@H](N)C[C@H](N)[C@H]3O[C@H]3O[C@H](CO)[C@@H](OCCCO)[C@H](O)[C@H]3N)O[C@@H]2CO)[C@H](N)[C@@H](O)[C@@H]1O` gave an IC50 of 144 ± 15.9 µg/mL (Mycobacterium smegmatis ribosome G1491A; translation, cell-free luciferase synthesis).
The IC50 of `CCCCCCCCC(=O)NCc1ccc(O)c(OC)c1` is reported as greater than 4 µg/mL (mouse mAb 1-G12; antibody binding, indirect competitive ELISA; added: coating antigen 3-OVA).
`NC[C@@H]1O[C@H](O[C@H]2[C@@H](O)[C@H](O[C@@H]3[C@@H](O)[C@H](N)C[C@H](N)[C@H]3O[C@H]3O[C@@H]4COCO[C@H]4[C@H](O)[C@H]3N)O[C@@H]2CO)[C@H](N)[C@@H](O)[C@@H]1O` gave an IC50 of 120 ± 49.6 µg/mL (Mycobacterium smegmatis ribosome G1491A; translation, cell-free luciferase synthesis).
`CC(=O)N[C@H]1CSC(=O)[C@H](Cc2ccccc2)NC(=O)[C@H](Cc2ccccc2)NC(=O)CCCCCCCNC1=O` has an IC50 of 0.985 µM (AgrC (Staphylococcus aureus); reporter gene, inhibitor; Staphylococcus aureus, AH1872 (MN EV); 24 h).
With `CCCCCO[C@H]1[C@H](O)[C@@H](N)[C@@H](O[C@H]2[C@H](O[C@@H]3O[C@H](CO)[C@@H](O[C@H]4O[C@@H](CN)[C@@H](O)[C@H](O)[C@H]4N)[C@H]3O)[C@@H](O)[C@H](N)C[C@@H]2N)O[C@@H]1CO` the IC50 was 62.1 ± 9.35 µg/mL (Mycobacterium smegmatis ribosome G1491A; translation, cell-free luciferase synthesis).
`CC[S+]([O-])C1C(CO)OC(OC2C(N)CC(N)C(O)C2OC2OC(CO)C(OC3OC(CN)C(O)C(O)C3N)C2O)C(N)C1O` (mixture of isomers) gave an IC50 of 139 µg/mL (bacterial hybrid ribosome, human mitochondrial A1555G A site; cell-free translation, inhibitor).
`NC[C@@H]1O[C@H](O[C@H]2[C@@H](O)[C@H](O[C@@H]3[C@@H](O)[C@H](N)C[C@H](N)[C@H]3O[C@H]3O[C@H](CO)[C@@H](OCC(O)CO)[C@H](O)[C@H]3N)O[C@@H]2CO)[C@H](N)[C@@H](O)[C@@H]1O` (stereo partly shown) gave an IC50 of 67.3 ± 21.2 µg/mL (Mycobacterium smegmatis ribosome G1491C; translation, cell-free luciferase synthesis).
`CC(=O)N[C@H]1CSC(=O)[C@H](Cc2ccccc2)NC(=O)[C@H](Cc2ccccc2)NC(=O)CCCCCCCCNC1=O` gave an IC50 of 3.49 µM (AgrC (Staphylococcus aureus); reporter gene, inhibitor; Staphylococcus aureus, AH1872 (MN EV); 24 h).
`C=CCO[C@H]1[C@H](O)[C@@H](N)[C@@H](O[C@H]2[C@H](O[C@@H]3O[C@H](CO)[C@@H](O[C@H]4O[C@@H](CN)[C@@H](O)[C@H](O)[C@H]4N)[C@H]3O)[C@@H](O)[C@H](N)C[C@@H]2N)O[C@@H]1CO` gave an IC50 of 44.7 ± 3.15 µg/mL (Mycobacterium smegmatis ribosome G1491A; translation, cell-free luciferase synthesis).
With `O=C(Oc1nsnc1N1CCOCC1)c1ccccc1` the IC50 was 16.9 ± 1 µM (trypsin; inhibitor, gel-based; added: denatured BSA).

Some of these lines once more:
The IC50 of `CC(=O)N[C@H]1CNC(=O)[C@H](Cc2ccccc2)NC(=O)[C@H](Cc2ccccc2)NC(=O)COCCOCCNC1=O` is reported as greater than 10 µM (AgrC (Staphylococcus aureus); reporter gene, inhibitor; Staphylococcus aureus, AH1677 (USA300 LAC); 24 h).
